# Published values gathered from unrelated publications.
# Lines come from different studies, so protocols differ.
SMILES,organism,test,system,conditions,MIC
CC(C)C[C@H](NC(=O)[C@H](CCCNC(=N)N)NC(=O)[C@H](Cc1c[nH]c2ccccc12)NC(=O)[C@H](CCCNC(=N)N)NC(=O)[C@H](Cc1c[nH]c2ccccc12)NC(=O)[C@H](Cc1c[nH]c2ccccc12)NC(=O)[C@H](Cc1c[nH]c2ccccc12)NC(=O)[C@H](CCCNC(=N)N)NC(=O)[C@H](Cc1c[nH]c2ccccc12)NC(=O)[C@H](CCCNC(=N)N)NC(=O)CN)C(N)=O,Candida albicans,broth microdilution,"CGMCC 2.209, RPMI 1640-MOPS","48 h, 30 °C, added: KCl 4.5 mM",32 µM
N=C(N)c1ccc(OCc2ccccc2COc2ccc(C(=N)N)cc2)cc1,Escherichia coli,,mcr-1,"20 h, compound alone",> 200 mg/L
CC1(C)SC2C(NC(=O)C(NC(=O)C3=C(O)CNC3=O)c3ccccc3)C(=O)N2C1C(=O)O (stereo not shown),Escherichia coli,broth microdilution,"ATCC 35218, low-level TEM-1",no clavulanic acid,> 200 mg/L
C[C@H](NC(=O)[C@H](CCCNC(=N)N)NC(=O)[C@H](Cc1c[nH]c2ccccc12)NC(=O)[C@H](CCCNC(=N)N)NC(=O)[C@H](Cc1c[nH]c2ccccc12)NC(=O)[C@H](Cc1c[nH]c2ccccc12)NC(=O)[C@H](Cc1c[nH]c2ccccc12)NC(=O)[C@H](CCCNC(=N)N)NC(=O)[C@H](Cc1c[nH]c2ccccc12)NC(=O)[C@H](CCCNC(=N)N)NC(=O)CN)C(N)=O,Candida albicans,broth microdilution,"58288, RPMI 1640-MOPS","48 h, 30 °C",8 µM
CC(C)C1NC(=O)C(C(=O)NC(C(=O)NC2C(=O)N3C2SC(C)(C)C3C(=O)O)c2ccccc2)=C1O (stereo not shown),Escherichia coli,broth microdilution,Keio mutant JW0146-2,"18 h, ferric hydroxamate uptake gene",25 mg/L
CC(C)C[C@H](NC(=O)[C@H](C)NC(=O)[C@@H](NC(=O)[C@H](CCCNC(=N)N)NC(=O)[C@H](CC(C)C)NC(=O)[C@H](Cc1c[nH]c2ccccc12)NC(=O)[C@@H]1CCCN1C(=O)[C@@H](N)CCCCN)C(C)C)C(=O)N[C@@H](CS)C(=O)N1CCC[C@H]1C(=O)NCC(=O)O,Staphylococcus intermedius,broth microdilution,S,,32 µM
CC[C@H](C)[C@H](NC(=O)[C@@H](NC(=O)[C@H](Cc1ccccc1)NC(=O)CNC(=O)[C@H](CCC(N)=O)NC(=O)[C@H](CCCCN)NC(=O)[C@H](C)N)C(C)C)C(=O)N[C@@H](Cc1ccc(O)cc1)C(=O)N[C@@H](CCCNC(=N)N)C(=O)N[C@H](C(=O)N[C@@H](CCCNC(=N)N)C(=O)N[C@H](C(=O)N[C@@H](CCCNC(=N)N)C(=O)N[C@@H](CCCNC(=N)N)C(=O)NCC(=O)N[C@@H](CC(N)=O)C(=O)N[C@@H](CCCNC(=N)N)C(=O)N[C@@H](CCCCN)C(N)=O)C(C)C)C(C)C,Listeria monocytogenes,broth dilution,KCTC 13064,,> 100 µM
N=C(N)NCCC[C@H](NC(=O)[C@H](Cc1c[nH]c2ccccc12)NC(=O)[C@H](CCCNC(=N)N)NC(=O)[C@H](Cc1c[nH]c2ccccc12)NC(=O)[C@H](Cc1c[nH]c2ccccc12)NC(=O)[C@H](Cc1c[nH]c2ccccc12)NC(=O)[C@H](CCCNC(=N)N)NC(=O)[C@H](Cc1c[nH]c2ccccc12)NC(=O)[C@H](CCCNC(=N)N)NC(=O)CN)C(N)=O,Candida albicans,broth microdilution,"CGMCC 2.209, RPMI 1640-MOPS","48 h, 30 °C, added: CaCl2 2 mM",16 µM
CC1(C)SC2C(NC(=O)C(NC(=O)C3=C(O)C(Cc4ccsc4)NC3=O)c3ccccc3)C(=O)N2C1C(=O)O (stereo not shown),Escherichia coli,broth microdilution,Keio mutant JW0146-2,"18 h, ferric hydroxamate uptake gene",12.5 mg/L
CC[C@H](C)[C@H](NC(=O)CN)C(=O)NCC(=O)N[C@@H](CCCCN)C(=O)N[C@@H](Cc1ccccc1)C(=O)N[C@@H](CC(C)C)C(=O)N[C@@H](CCCCN)C(=O)N[C@@H](CCCCN)C(=O)N[C@@H](C)C(=O)N[C@@H](CCCCN)C(=O)N[C@@H](CCCCN)C(=O)N[C@@H](Cc1ccccc1)C(=O)NCC(=O)N[C@@H](CCCCN)C(=O)N[C@@H](C)C(=O)N[C@@H](Cc1ccccc1)C(=O)N[C@H](C(=O)N[C@@H](CCCCN)C(=O)N[C@H](C(=O)N[C@@H](CC(C)C)C(=O)N[C@@H](CCCCN)C(=O)N[C@@H](CCCCN)C(N)=O)[C@@H](C)CC)C(C)C,Enterobacter sp.,broth dilution,KCTC 2625,,< 3.1 µM
CC(C)CC1NC(=O)C(C(=O)NC(C(=O)NC2C(=O)N3C2SC(C)(C)C3C(=O)O)c2ccccc2)=C1O (stereo not shown),Escherichia coli,broth microdilution,"isolate IU, CTX-M-14, TEM-1",no clavulanic acid,> 200 mg/L
CC(C)C[C@H](NC(=O)[C@@H](NC(=O)[C@H](CCCNC(=N)N)NC(=O)[C@H](CCC(N)=O)NC(=O)[C@H](Cc1ccccc1)NC(=O)[C@H](Cc1ccc(O)cc1)NC(=O)[C@H](CC(N)=O)NC(=O)[C@H](Cc1c[nH]c2ccccc12)NC(=O)[C@@H](NC(=O)[C@H](CCCNC(=N)N)NC(=O)[C@H](CCCCN)NC(=O)[C@@H](N)Cc1ccccc1)C(C)C)C(C)C)C(=O)N[C@H](C(=O)N[C@@H](CCCCN)C(=O)N[C@@H](CCCCN)C(N)=O)C(C)C,Listeria monocytogenes,broth dilution,KCTC 13064,,50 µM
N=C(N)NCCC[C@H](NC(=O)[C@H](Cc1c[nH]c2ccccc12)NC(=O)[C@H](CCCNC(=N)N)NC(=O)[C@H](Cc1c[nH]c2ccccc12)NC(=O)[C@H](Cc1c[nH]c2ccccc12)NC(=O)[C@H](Cc1c[nH]c2ccccc12)NC(=O)[C@H](CCCNC(=N)N)NC(=O)[C@H](Cc1c[nH]c2ccccc12)NC(=O)[C@@H](N)CCCNC(=N)N)C(=O)N[C@@H](Cc1ccccc1)C(N)=O,Candida albicans,broth microdilution,"SP3931, RPMI 1640-MOPS","48 h, 30 °C",8 µM
CC[C@H](C)CCCCC(=O)N[C@@H](CCN)C(=O)N[C@H](C(=O)N[C@@H](CCN)C(=O)N[C@H]1CCNC(=O)[C@H]([C@@H](C)O)NC(=O)[C@H](CCN)NC(=O)[C@H](CCN)NC(=O)[C@H](CC(C)C)NC(=O)[C@@H](Cc2ccccc2)NC(=O)[C@H](CCN)NC1=O)[C@@H](C)O,Salmonella enterica serovar Typhimurium,,DA6192,"24 h, 37 °C",2 mg/L
CNC(C)[C@@H]1CC[C@@H](N)[C@@H](O[C@H]2[C@H](O)[C@@H](O[C@H]3OC[C@](C)(O)[C@H](NC)[C@H]3O)[C@H](N)C[C@@H]2N)O1 (stereo partly shown),Proteus mirabilis,broth microdilution,,18 h,4 mg/L
N=C(N)NCCC[C@H](NC(=O)CCCCCNC(=O)[C@H](CCCNC(=N)N)NC(=O)[C@H](CCCNC(=N)N)NC(=O)CCCCCNC(=O)[C@H](CCCNC(=N)N)NC(=O)[C@H](CCCNC(=N)N)NC(=O)CCCCCNC(=O)[C@H](CCCNC(=N)N)NC(=O)[C@H](CCCNC(=N)N)NC(=O)CCCCCNC(=O)[C@@H](N)CCCNC(=N)N)C(=O)NCCCCCC(=O)NCCC(=O)O,Escherichia coli,broth microdilution,"BAA 41, resistant, Mueller-Hinton broth",,48 µM
N=C(N)NCCC[C@H](NC(=O)CN)C(=O)N[C@@H](Cc1c[nH]c2ccccc12)C(=O)N[C@@H](CCCNC(=N)N)C(=O)N[C@@H](Cc1c[nH]c2ccccc12)C(=O)N[C@@H](Cc1c[nH]c2ccccc12)C(=O)N[C@@H](Cc1c[nH]c2ccccc12)C(=O)N[C@@H](CCCNC(=N)N)C(=O)N[C@@H](Cc1c[nH]c2ccccc12)C(=O)N[C@@H](CCCNC(=N)N)C(=O)N[C@@H](Cc1ccccc1)C(N)=O,Candida albicans,broth microdilution,"58288, RPMI 1640-MOPS","48 h, 30 °C",8 µM
CC[C@H](C)[C@H](NC(=O)[C@H](CCCCN)NC(=O)[C@H](CCCCN)NC(=O)[C@H](Cc1ccccc1)NC(=O)[C@@H](NC(=O)[C@@H](NC(=O)[C@H](CCCNC(=N)N)NC(=O)[C@H](Cc1ccccc1)NC(=O)[C@@H](NC(=O)[C@H](CCCCN)NC(=O)[C@H](CCCCN)NC(=O)[C@@H](N)CCSC)[C@@H](C)CC)C(C)C)[C@@H](C)CC)C(=O)N[C@@H](CC(C)C)C(=O)N[C@@H](CCCCN)C(=O)N[C@@H](CCCNC(=N)N)C(=O)N[C@@H](CC(C)C)C(=O)N[C@H](C(=O)N[C@H](C(=O)O)C(C)C)[C@@H](C)CC,Staphylococcus aureus,broth microdilution,GU-1 MRSA,5% fetal bovine serum,8 mg/L
CC(C)C[C@H](NC(=O)[C@H](CCCNC(=N)N)NC(=O)[C@H](Cc1c[nH]c2ccccc12)NC(=O)[C@H](CCCNC(=N)N)NC(=O)[C@H](Cc1c[nH]c2ccccc12)NC(=O)[C@H](Cc1c[nH]c2ccccc12)NC(=O)[C@H](Cc1c[nH]c2ccccc12)NC(=O)[C@H](CCCNC(=N)N)NC(=O)[C@H](Cc1c[nH]c2ccccc12)NC(=O)[C@@H](N)CCCNC(=N)N)C(N)=O,Candida albicans,broth microdilution,"SP3903, RPMI 1640-MOPS","48 h, 30 °C",8 µM
CC1(C)SC2C(NC(=O)C(NC(=O)C3=C(O)C(Cc4ccc([N+](=O)[O-])cc4)NC3=O)c3ccccc3)C(=O)N2C1C(=O)O (stereo not shown),Escherichia coli,broth microdilution,"isolate IU 356 A, KPC-3, VIM-1, TEM",added: clavulanic acid 6 µg/mL,> 200 mg/L
N=C(N)NCCC[C@H](NC(=O)CN)C(=O)N[C@@H](Cc1c[nH]c2ccccc12)C(=O)N[C@@H](CCCNC(=N)N)C(=O)N[C@@H](Cc1c[nH]c2ccccc12)C(=O)N[C@@H](Cc1c[nH]c2ccccc12)C(=O)N[C@@H](Cc1c[nH]c2ccccc12)C(=O)N[C@@H](CCCNC(=N)N)C(=O)N[C@@H](Cc1c[nH]c2ccccc12)C(=O)N[C@@H](CCCNC(=N)N)C(=O)N[C@@H](Cc1c[nH]c2ccccc12)C(N)=O,Candida albicans,broth microdilution,"alveolar fluid isolate, RPMI 1640-MOPS","48 h, 30 °C",8 µM
CN1CC(O)=C(C(=O)NC(C(=O)NC2C(=O)N3C2SC(C)(C)C3C(=O)O)c2ccccc2)C1=O (stereo not shown),Escherichia coli,broth microdilution,"ATCC 35218, low-level TEM-1",no clavulanic acid,> 200 mg/L

# Excerpt of the above:
SMILES,organism,test,system,conditions,MIC
N=C(N)NCCC[C@H](NC(=O)[C@H](Cc1c[nH]c2ccccc12)NC(=O)[C@H](CCCNC(=N)N)NC(=O)[C@H](Cc1c[nH]c2ccccc12)NC(=O)[C@H](Cc1c[nH]c2ccccc12)NC(=O)[C@H](Cc1c[nH]c2ccccc12)NC(=O)[C@H](CCCNC(=N)N)NC(=O)[C@H](Cc1c[nH]c2ccccc12)NC(=O)[C@@H](N)CCCNC(=N)N)C(=O)N[C@@H](Cc1ccccc1)C(N)=O,Candida albicans,broth microdilution,"SP3931, RPMI 1640-MOPS","48 h, 30 °C",8 µM
CC[C@H](C)CCCCC(=O)N[C@@H](CCN)C(=O)N[C@H](C(=O)N[C@@H](CCN)C(=O)N[C@H]1CCNC(=O)[C@H]([C@@H](C)O)NC(=O)[C@H](CCN)NC(=O)[C@H](CCN)NC(=O)[C@H](CC(C)C)NC(=O)[C@@H](Cc2ccccc2)NC(=O)[C@H](CCN)NC1=O)[C@@H](C)O,Salmonella enterica serovar Typhimurium,,DA6192,"24 h, 37 °C",2 mg/L
CNC(C)[C@@H]1CC[C@@H](N)[C@@H](O[C@H]2[C@H](O)[C@@H](O[C@H]3OC[C@](C)(O)[C@H](NC)[C@H]3O)[C@H](N)C[C@@H]2N)O1 (stereo partly shown),Proteus mirabilis,broth microdilution,,18 h,4 mg/L
